Measurements from different studies.
Protocols differ between the studies behind these lines. Several values in a cell are separate wells, animals, samples, runs or records. Numbers after ± are the reported error.
Cell line: Vero

SMILES	assay	system	setting	quantity	result
COc1c(C)c2c(c(O)c1C/C=C(\C)CCC(=O)O)C(=O)OC2	item: cell morphology	–	–	minimal cytotoxic concentration	> 100 µM
Cn1c(C(=O)Nc2ccc3c(c2)OCCO3)cc2c(=O)n3ccccc3nc21	cytotoxicity, MTT	–	24 (unit not given)	IC50	151 µM
NC(=O)c1ncn([C@@H]2O[C@H](CO)[C@@H](O)[C@H]2O)n1	cell morphology alteration	–	–	minimum cytotoxic concentration	> 250 µM
O=C(Nc1ccccc1F)c1cc2c(=O)n3ccccc3nc2n1Cc1ccccc1	MTT	–	25 µM, 24 (unit not given)	viability	49.5%
Nc1nc(CCc2ccccc2)c(Br)c(=O)[nH]1	cell morphology alteration	–	–	minimum cytotoxic concentration	> 100 µM
Cc1nn(-c2ccc(Cl)cc2)c2c1C(c1ccc(Br)cc1)C(C#N)=C(N)O2 (stereo not shown)	MTT	–	100 µM	viability	42.6%
O=C1COCCN1c1ccc(CO[C@@H]2COc3nc([N+](=O)[O-])cn3C2)cc1F	cytotoxicity	–	–	IC50	> 100 µg/mL
Cl.O[C@]12C=C(c3nccc4c3[nH]c3ccccc34)[C@@H]3CCN(CCCC/C=C\CC1)C[C@@]31C[C@@H]3/C=C\CCCCN3[C@H]12	cytotoxicity, neutral red	–	48 h	IC50	0.43 ± 0.17 µg/mL
CCCCCc1nc(N)[nH]c(=O)c1Br	cell morphology alteration	–	–	minimum cytotoxic concentration	> 100 µM
Cc1nn(-c2ccc(Cl)cc2)c2c1C(c1c(Cl)cccc1Cl)C(C#N)=C(N)O2 (stereo not shown)	MTT	–	100 µM	viability	48.9%
O=C1COCCN1c1ccc(CO[C@@H]2COc3nc([N+](=O)[O-])cn3C2)cn1	cytotoxicity	–	–	IC50	> 100 µg/mL
Cn1c(C(=O)Nc2ccc(Cl)cc2)cc2c(=O)n3ccccc3nc21	MTT	–	1.6 µM, 24 (unit not given)	viability	84.8%
COc1ccc(C2C(C#N)=C(N)Oc3c2c(C)nn3-c2ccc(Cl)cc2)cc1 (stereo not shown)	MTT	–	100 µM	viability	46.3%
N#C[Se]CC1Cc2cccc(Oc3cccc(F)c3)c2O1 (racemic)	cell viability, AlamarBlue	–	–	EC50	> 10 µM
Cc1nn(-c2ccc(Cl)cc2)c2c1C(c1ccc(F)cc1F)C(C#N)=C(N)O2 (stereo not shown)	MTT	–	25 µM	viability	54.4%
COc1ccc(/C=C/c2nc(N)[nH]c(=O)c2Br)cc1OC	cell morphology alteration	–	–	minimum cytotoxic concentration	> 100 µM
CC[C@@H](C)[C@H]1O[C@@H](c2c(O)c(-c3ccccc3)cn(OC)c2=O)[C@H](C)C[C@@H]1C	cytotoxicity, neutral red	–	48 h	IC50	> 4.76 µg/mL

SMILES	assay	system	setting	quantity	result
N#C[Se]CC1Cc2cc(Oc3cccc(F)c3)ccc2O1 (racemic)	cell viability, AlamarBlue	–	–	EC50	> 10 µM
CC(C)C[C@H](NC(=O)[C@H](C)NC(=O)[C@@H](NC(=O)[C@H](CCCNC(=N)N)NC(=O)[C@H](CC(C)C)NC(=O)[C@H](Cc1c[nH]c2ccccc12)NC(=O)[C@@H]1CCCN1C(=O)[C@@H](N)CCCCN)C(C)C)C(=O)N[C@@H](CS)C(=O)N1CCC[C@H]1C(=O)NCC(=O)O	WST-1	–	8 µM, 24 h	viability	99.7% and 76% and 97.5%
N#C[Se]CC1Cc2ccc(Oc3cccc(F)c3)cc2O1 (racemic)	cell viability, AlamarBlue	–	–	EC50	> 10 µM
Cc1nn(-c2ccc(Cl)cc2)c2c1C(c1ccc(Cl)cc1)C(C#N)=C(N)O2 (stereo not shown)	MTT	–	25 µM	viability	53%
Cc1ccc(NC(=O)c2cc3c(=O)n4cccc(C)c4nc3n2C)cc1Cl	MTT	–	1.6 µM, 24 (unit not given)	viability	78.3%
CC[C@H](C)C(=O)O[C@H]1C[C@@H](C)C=C2C=C[C@H](C)[C@H](CC[C@@H]3C[C@@H](O)CC(=O)O3)[C@H]21	monolayer disruption	–	83.2 µM	cytotoxicity	toxic
CC(=O)c1cccc(NC(=O)c2cc3c(=O)n4ccccc4nc3n2C)c1	MTT	–	100 µM, 24 (unit not given)	viability	44%
Cc1nn(-c2ccc(Cl)cc2)c2c1C(c1ccc(Cl)c(Cl)c1)C(C#N)=C(N)O2 (stereo not shown)	MTT	–	25 µM	viability	56.4%
O=[N+]([O-])c1cn2c(n1)OC[C@@H](OCc1ccc(N3CCOCC3)nc1)C2	cytotoxicity	–	–	IC50	> 100 µg/mL
CC(C)(O)Cc1nc(N)[nH]c(=O)c1Br	cell morphology alteration	–	–	minimum cytotoxic concentration	> 100 µM
CCc1ccc(NC(=O)c2cc3c(=O)n4ccccc4nc3n2C)cc1	MTT	–	25 µM, 24 (unit not given)	viability	63.2%
Cc1nn(-c2ccc(Cl)cc2)c2c1C(c1ccc(Cl)cc1Cl)C(C#N)=C(N)O2 (stereo not shown)	MTT	–	25 µM	viability	51.8%
Cc1cc(NC(=O)c2cc3c(=O)n4cccc(C)c4nc3n2C)ccc1Br	MTT	–	100 µM, 24 (unit not given)	viability	52.1%
O=[N+]([O-])c1cn2c(n1)OC[C@@H](OCc1ccc(N3CCCCC3)nc1)C2	cytotoxicity	–	–	IC50	> 100 µg/mL
COc1cc(C2C(C#N)=C(N)Oc3c2c(C)nn3-c2ccc(Cl)cc2)cc(OC)c1OC (stereo not shown)	MTT	–	25 µM	viability	59.3%
O=C1CSCCN1c1ccc(CO[C@@H]2COc3nc([N+](=O)[O-])cn3C2)cc1F	cytotoxicity	–	–	IC50	> 100 µg/mL
N#Cc1cn([C@@H]2O[C@H](COCc3ccccc3)[C@@H](OCc3ccccc3)[C@H](OCc3ccccc3)[C@H]2I)c(=O)[nH]c1=O	MTT	DMEM with 10% FBS	72 h	CC50	> 50 µM

Some of these lines once more:
SMILES	assay	system	setting	quantity	result
Cc1nn(-c2ccc(Cl)cc2)c2c1C(c1c(Cl)cccc1Cl)C(C#N)=C(N)O2 (stereo not shown)	MTT	–	100 µM	viability	48.9%
O=C1COCCN1c1ccc(CO[C@@H]2COc3nc([N+](=O)[O-])cn3C2)cn1	cytotoxicity	–	–	IC50	> 100 µg/mL
